Assay results gathered from unrelated publications.
Compare with care: the assays were run in different laboratories. ± gives the spread as reported. Bridges are numbered along the chain shown (N, C = ends). Where no end group is shown, it is not given here.
B1: enzyme P89H (Thermobifida fusca, UniProt Q47RA9); chain MIMIMASKSSPHDLPDVSGLSIAVLGGTGDQGRGLARRFAMAGHEVILGSRSAERAQAVAAELGEGLPVRGMDNAGAAEAGDVVIVAVHWDGHRALLESLKDVLAGKIVVDCVNPLGFDKRGAYALPVEEGSAAEQAAAILPDSRVVAAFHHVSAVLLLDPEVEKVDLDVLVLGDDREATDVVRALAARIPGVRGVYGGRLRNAHQVEAFTANLISINRRYKAHAGIRITDI
B2: UGT1A9 (Homo sapiens, UniProt O60656); chain GKLLVVPMDGSHWFTMRSVVEKLILRGHEVVVVMPEVSWQLGRSLNCTVKTYSTSYTLEDLDREFKAFAHAQWKAQVRSIYSLLMGSYNDIFDLFFSNCRSLFKDKKLVEYLKESSFDAVFLDPFDNCGLIVAKYFSLPSVVFARGILCHYLEEGAQCPAPLSYVPRILLGFSDAMTFKERVRNHIMHLEEHLLCHRFFKNALEIASEILQTPVTEYDLYSHTSIWLLRTDFVLDYPKPVMPNMIFIGGINCHQGKPLPMEFEAYINASGEHGIVVFSLGSMVSEIPEKKAMAIADALGKIPQTVLWRYTGTRPSNLANNTILVKWLPQNDLLGHPMTRAFITHAGSHGVYESICNGVPMVMMPLFGDQMDNAKRMETKGAGVTLNVLEMTSEDLENALKAVINDKSYKENIMRLSSLHKDRPVEPLDLAVFWVEFVMRHKGAPHLRPAAHDLTWYQYHSLDVIGFLLAVVLTVAFITFKCCAYGYRKCLGKKGRVKKAHKSKTH
B3: enzyme (Brachypodium distachyon, UniProt I1IPY7); chain MEQGKAALGWAARDASGHLSPYNFSRRVQKDDDVTIKVLFCGICHTDLHIIKNEWGNALYPIVPGHEVVGVVTDVGPGVKNFKAGETVGVGYFLDSCRTCDSCSKGHENYCPTLVLTSNGVDYDGATTQGGFSDVVVVNQDYVVRVPDTLPPDGAAPLLCAGVTVYSPMMQYGLNAPGKHLGVVGLGGLGHMAVKFGKAFGMKVTVISSSLRKREEALDRLGADDFLVSSDAEQMKAAAGAMDGIIDTVSAGHPIVPLLELLRPMGQMVVCGAPSEPLQLPAYAVITGGKRIAGNGVGSVRDCQAMLDFAGEHGITADVEVVKMDYVNTAVERLERNDVRYRFVIDVAGSLQQGGAA

B1 (enzyme P89H)  kcat (NC(=O)c1ccc[n+](CCO)c1; steady-state kinetics; pH 8, 25 °C): 0.0483 ± 0.00367 s⁻¹
CC(C)[C@H](NC(=O)[C@@H]1CCCN1C(=O)[C@H](CCCNC(=N)N)NC(=O)[C@H](CS)NC(=O)[C@H](Cc1c[nH]c2ccccc12)NC(=O)[C@H](CCCNC(=N)N)NC(=O)[C@@H](Cc1ccccc1)NC(=O)[C@H](Cc1c[nH]cn1)NC(=O)[C@H](CCC(=O)O)NC(=O)[C@H](CS)NC(=O)[C@H](CS)NC(=O)[C@H](CCCCN)NC(=O)[C@@H]1CC(=O)N[C@@H](CCCNC(=N)N)C(=O)N[C@@H](C)C(=O)N[C@@H](CC(=O)O)C(=O)N[C@H](Cc2ccc(O)cc2)C(=O)N1)C(N)=O [technetium-99m labelled]  tissue uptake (C57 mice, pancreas; intravenous, 0.037 MBq, 2 h): 0.19 ± 0.05 %ID/g
B2 (UGT1A9)  Vmax/Km (COc1ccc(-c2oc3ccccc3c(=O)c2O)cc1; steady-state kinetics; pH 7.4, 37 °C): 32000 µL/min/mg
PRL (Homo sapiens, UniProt P01236)  pKa (NMR, measured: His173; 35 °C, numbering of the source): 4.99
CGGQDLKSC (disulfide 1-9 (inferred)) (disulfide)  cell uptake (CuFi-1; flow cytometry; nanoparticles after CF sputum permeation; 2 h, 37 °C; reference: 1 kDa mPEG-coated nanoparticles): ~3 fold
B3 (enzyme)  Vmax (NC(=O)C1=CN([C@@H]2O[C@H](COP(=O)(O)OP(=O)(O)OC[C@H]3O[C@@H](n4cnc5c(N)ncnc54)[C@H](OP(=O)(O)O)[C@@H]3O)[C@@H](O)[C@H]2O)C=CC1; steady-state kinetics; pH 5.35, 23 °C, cofactor varied): 6.89 µmol/min/mg
Insulin human  brain concentration (rat, olfactory bulb; intranasal, 20 µg per nostril, 120 min): 39.4 ± 6.5 pg/mg tissue
Transferrin  fibrillization delay time (human IAPP; thioflavin T fluorescence; 0.5 µM, pH 8.0, 37 °C, with: 25 µM hIAPP): ≥ 9 h

For quick reference, copied from above:
B2 (UGT1A9)  Vmax/Km (COc1ccc(-c2oc3ccccc3c(=O)c2O)cc1; steady-state kinetics; pH 7.4, 37 °C): 32000 µL/min/mg
